# Results collected from several papers.
# Numbered parts are unrelated; each lists some results of a single study.

# Sample 1
# Target: Histone acetyltransferase KAT6A, winged helix 1, GST fusion (KAT6A, Homo sapiens, UniProt Q92794, residues 1-85)
# Method: protein binding microarray
# Molecule type: double-stranded DNA, one strand shown
# Medium: in vitro
# Concentration: not given
# Notes: 8-mer, flanks averaged, mean of 2 arrays, mostly near background
# Reference: not given
# Direction: higher = stronger binding
# Residues (chain): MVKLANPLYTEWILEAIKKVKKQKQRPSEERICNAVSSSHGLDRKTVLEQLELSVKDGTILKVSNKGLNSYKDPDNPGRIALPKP
Oligonucleotide,E-score
AGGGGAAG,-0.208
AATCCTTA,-0.255
CGCTGACA,0.0806
CAAAATCG,-0.0112
AACATACG,0.176
CATGAGTA,0.0148
AAGAGGTG,-0.104
GACCACGC,0.0624
GGCCAGCC,-0.121
ATCCGTAG,0.0952
CGCACACG,0.305
ATTACAAG,-0.126
AACTCTGA,-0.213
AACCGTCA,0.029
GGAGGTAA,-0.237
GATGGTTA,-0.09
AGTATTAT,-0.258

# Sample 2
# Target: RING finger protein unkempt homolog, zinc fingers 1-6, GST-SBP tag (UNK, Homo sapiens, UniProt Q9C0B0, residues 30-357)
# Method: RNA Bind-n-Seq
# Molecule type: RNA
# Medium: in vitro
# Concentration: not given
# Notes: RNA with constant flanks, ends assumed
# Reference: input RNA pool
# Direction: higher = stronger binding
# All sequences stand within: GGGAGUUCUACAGUCCGACGAUC … CAACAGAGGAUUGAGCAUCA
# Residues (chain): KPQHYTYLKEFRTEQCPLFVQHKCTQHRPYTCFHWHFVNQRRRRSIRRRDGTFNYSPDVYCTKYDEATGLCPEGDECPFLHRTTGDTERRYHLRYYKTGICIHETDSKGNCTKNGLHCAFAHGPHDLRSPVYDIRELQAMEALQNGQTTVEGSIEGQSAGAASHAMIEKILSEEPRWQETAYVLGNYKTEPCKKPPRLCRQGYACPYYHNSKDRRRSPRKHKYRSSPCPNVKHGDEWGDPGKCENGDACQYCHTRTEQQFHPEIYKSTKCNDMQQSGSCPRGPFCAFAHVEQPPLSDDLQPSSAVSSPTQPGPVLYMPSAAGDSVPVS
Oligonucleotide,bound/input enrichment [ratio]
AAUGGCAAUGGGGGACCUGGUCCCUAUGUGGGGCAAGCUGGCACUGCUACCCUUCCCCGGAACUUCCACUACCCUCCUGAUGGUUAUAGUCGCCACUAUGAAGAUGGUUAUCCAGGUGGC,0.184
UUGUUAAAAUGCUAUUUCCUUUAUUACCUUGGAAACUGACUCAGCCUCUUGUUGCUCCUAAUCCGGGUUUAAGGCUCUUGUAAGUUGCAGAUAAAAGGAUUCAUUUUAACAAUAGAAGGA,0.19
GAAUGUGGCUGGAAGGAUCAGUUGAAGGCACACUGUAAAGAGGUAAUUAAAGAAAAAGGACCCGAACACGUUACUGUUGAUGACUUGGUGGCUGAAAUCACUCCAAAAGGCAGAGCCCUG,0.195
UGUGGCAGUGCCCCGUGUUUGCUGUGCCGAUGCUGCCCCAGUGGGAACAACUCCACUGUGACCCGAUUGAUCUACGCACUUUUCUUGCUCGUCGGAGUAUGUGUAGCUUGUGUAAUGUUA,0.272
AUUUUAUACCCCAAUAAUCAACUCGUUUUUAUAUUAAUGUACUUGUUUCUCUGUUGUAAGAACCGGCAUUAACACAAAGGAGGCGUCUCGGGAGAGGAUUAGGUUCCAUCCUUUACGUGU,2.84
UGUUGAUGACUUCUUGUGGCAUUUCACACACUGUAGAUGGUCACUCCCUUCAUGUCCAUGUCCGCUCAUGGUGUAAGAUGAUGUCUUGUCAGUAUUACUGUUUUGCUAAGCCGCUUCAUU,0.076
ACAAAAAACAAACGACCAUUUCUCUAAGCCAAGUUUCUUUUAGAGACAUUUUAACUUAUUCCGCUGAACUCUAGAUUUUUUGGUAAACUAUCAAUCUGUAUAUGUUGUAAUUAAGUGUCU,0.91
AGUCCAAAUCACGCAGUGGUGCACGGCAACCUGGCUUGUGUAUACUAUGAGCAAGGCCUGACCGAUCUGGCAAUAGACACCUACAGGCGGGCUAUCGAACUACAACCACAUUUCCCUGAU,0.36

# Sample 3
# Target: Centromere-binding protein 1, full length, His-tagged (CBF1, Saccharomyces cerevisiae, UniProt P17106, residues 1-351)
# Chain of UniProt P17106 (whole entry, looked up): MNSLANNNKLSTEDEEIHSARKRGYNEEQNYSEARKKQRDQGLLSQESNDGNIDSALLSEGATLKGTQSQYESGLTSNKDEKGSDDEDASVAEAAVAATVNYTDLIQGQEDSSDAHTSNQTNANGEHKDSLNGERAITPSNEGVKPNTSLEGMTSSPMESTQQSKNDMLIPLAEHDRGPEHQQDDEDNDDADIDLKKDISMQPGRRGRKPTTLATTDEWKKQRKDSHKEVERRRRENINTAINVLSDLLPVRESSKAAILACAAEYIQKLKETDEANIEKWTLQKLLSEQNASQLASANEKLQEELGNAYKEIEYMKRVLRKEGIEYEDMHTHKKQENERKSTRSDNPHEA
# Method: competition protein-binding microarray
# Molecule type: double-stranded DNA, one strand shown
# Medium: in vitro
# Concentration: 2 µM
# Notes: whole 60-bp probe, lowest competitor level
# Together with: Pho4 competitor, 0.05 µM
# Direction: higher = stronger binding
# All sequences stand within: … GTCTTGATTCGCTTGACGCTGCTG
Oligonucleotide,fluorescence intensity [a.u.]
GGGAAAAAAATTGACCACGTGACTCGAGAATCAACT,15400
TGCGCAACAACTTGAGGAGTGGGTGTATGTCTAGAA,57
CGCATATTTCCATAGCGCGTGACGGTAAGTACAAGA,513
CGTCCTAGTGATTGGCCCGTGGGTGCCATGAGGAAG,71.9
CATACCCAACCTTGTACAGTGGGTGAAGATATTTGT,64.9
AAAGCGGTAATTTGCCGTGTGGGTGCAGATATCTAT,78.7
CTTCTGTAAATTTTTCACGTGACGTGAAGCGCCCCG,4390
GCTGAGTACTTTGGGGTCGTGATGGAGCTGTGCTAC,97.8
CAATGGCTCAGTAACCTCGTGATGGAAAAAGGGAAA,503
ACAACGGGGAACCGCACCGTGATGGCACCTAGCCCA,59.4
CCAAACATTGTTCACCACGATGTTGTTCCAATGTTG,83.4
TATAAAACAACTTTGAACGTGGCAAATCAGATTGCC,126
CTCAAAAGCTTGGGGTGCGTGGGACGGCGCTGCTCG,64.4
CGGACAATATCGGTACTCGTGAAACATTTCTTGCTG,137
ACCAAAGGGTTCTTGCGGGTGTAGATCCCAAGTCCA,62.2
TGGCGGCGGGATCTACACGTGCGCCTCGGGAAGGCG,760
TTTCGAGAGCATACCCACGGGTAGGAAAGAAAGAGG,76.5
GGATAATGCTTTTTTCCCGTGGCCGTTACATTTTTG,92.7

# Sample 4
# Target: TAR DNA-binding protein 43, full length, His tag (TARDBP, Homo sapiens, UniProt Q13148, residues 1-414)
# Method: RNA Bind-n-Seq
# Molecule type: RNA
# Medium: in vitro
# Concentration: 20 nM
# Notes: 6-mer, flanks averaged, single round
# Together with: 150 mM LiCl
# Reference: input library
# Direction: higher = stronger binding
Oligonucleotide,6-mer enrichment (R)
UUUCUU,1.22
UAGUGU,1.41
GACAUA,0.853
UUGUAA,1.01
GUCACU,0.883
UAGCCU,0.938
UAACUC,0.883
AGUCCA,0.827
AGGGGC,1.18
GUUUCA,0.96
UCUCUC,0.895
CUGCGU,1.01
AGGUUA,0.946

# Sample 5
# Target: Interferon regulatory factor 7, full length, phosphomimetic (IRF7, Homo sapiens, UniProt Q92985, residues 1-503, S471D/S472D/S475D/S476D/S477D/S483D/S484D/S487D)
# Method: protein-binding microarray
# Molecule type: double-stranded DNA, one strand shown
# Medium: in vitro
# Concentration: 2200 nM top
# Notes: 60-bp whole probe
# Together with: salmon DNA 0.4 mg/ml
# Reference: random background probes
# Direction: higher = stronger binding
# All sequences stand within: GCCTAGCAC … GTCTTGATTCGCTTGACGCTGCTG
# Residues (chain): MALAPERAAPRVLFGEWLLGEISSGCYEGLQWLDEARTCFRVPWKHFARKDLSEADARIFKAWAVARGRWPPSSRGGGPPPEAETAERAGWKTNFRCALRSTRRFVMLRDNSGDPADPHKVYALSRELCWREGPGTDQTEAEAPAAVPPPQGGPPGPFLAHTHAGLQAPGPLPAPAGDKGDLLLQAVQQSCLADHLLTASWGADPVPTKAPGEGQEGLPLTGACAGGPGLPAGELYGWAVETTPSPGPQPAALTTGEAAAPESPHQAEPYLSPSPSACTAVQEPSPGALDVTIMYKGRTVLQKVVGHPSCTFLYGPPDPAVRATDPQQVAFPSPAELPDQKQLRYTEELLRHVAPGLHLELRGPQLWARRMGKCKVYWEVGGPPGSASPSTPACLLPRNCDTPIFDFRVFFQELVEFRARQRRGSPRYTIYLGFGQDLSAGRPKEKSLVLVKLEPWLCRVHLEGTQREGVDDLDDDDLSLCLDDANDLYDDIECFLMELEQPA
Oligonucleotide,fitted relative affinity
GTCGATCTCAGTTTCGAGACGTGCTAG,3.71 z-score
GACGGTTTCGGGTATCGGCACGTGCTA,5.81 z-score
TTTGGACTGGGTATCGGTTAGTGCTAG,0.235 z-score
ATGACTCCCTCTCTGGCCAAGTGCTAG,1.1 z-score
TTAGAACTGAGGCTCGATTAGTGCTAG,-0.641 z-score
TTAGATCACAGACTGGATTAGTGCTAG,-0.169 z-score
GGAAATTCTCATTTCCAATTGTGCTAG,0.954 z-score
TTAGATCTCAGTCTCGATTGGTGCTAG,0.739 z-score
GACGGACTGCTGCTGCTGACGTGCTAG,-0.137 z-score
TTAGAACTGGGGTATCGATTAGTGCTA,-0.0905 z-score
TTAGGTTTCAGACTGGGTTAGTGCTAG,0.754 z-score
TTAGGACTGGGGCCTGGGTTAGTGCTA,-1.23 z-score
GGCGGACTGGGTTTCGGGACGTGCTAG,0.319 z-score
GACGGTTTCGGACTGGCGACGTGCTAG,3.79 z-score
GACGATTTCAGTTTCAAGACGTGCTAG,2.58 z-score
GTCGGTTTCCTACTGCTGACGTGCTAG,2.86 z-score
TTAGACATCGGGTTTCGATTAGTGCTA,2.41 z-score
TTAGGTTCCAGTTTCGGTTAGTGCTAG,8.33 z-score
TTAGGACCGGGTCTCGGTTAGTGCTAG,-0.345 z-score

# Some of these lines once more (sample 5):
Oligonucleotide,fitted relative affinity
TTAGATCTCAGTCTCGATTGGTGCTAG,0.739 z-score
GACGGACTGCTGCTGCTGACGTGCTAG,-0.137 z-score
TTAGAACTGGGGTATCGATTAGTGCTA,-0.0905 z-score
TTAGGTTTCAGACTGGGTTAGTGCTAG,0.754 z-score
TTAGGACTGGGGCCTGGGTTAGTGCTA,-1.23 z-score
GGCGGACTGGGTTTCGGGACGTGCTAG,0.319 z-score
GACGGTTTCGGACTGGCGACGTGCTAG,3.79 z-score
GACGATTTCAGTTTCAAGACGTGCTAG,2.58 z-score
GTCGGTTTCCTACTGCTGACGTGCTAG,2.86 z-score
TTAGACATCGGGTTTCGATTAGTGCTA,2.41 z-score
TTAGGTTCCAGTTTCGGTTAGTGCTAG,8.33 z-score
